Assay results gathered from unrelated publications.
Every numbered part comes from another study and shows a few of its results, in no order. Substitutions count along the parent as printed.

Study 1
Target: Sal-like protein 4, full length isoform B (SALL4, Homo sapiens, UniProt Q9UJQ4-2, residues 1-616)
Technique: universal PBM
Molecule type: double-stranded DNA, one strand shown
Medium: in vitro
Concentration: not given
Setting: 8-mer, flanks averaged, mean of replicates
Direction: higher = stronger binding
Oligonucleotide | E-score
AACTCCAA | -0.0328
ACTCAACG | -0.0252
ATACTCAA | 0.198
CCTAGGCC | -0.215
ACGTCCTA | -0.00655
GGTTTCGA | -0.258
GCATCTTA | 0.117
GGACATGA | -0.0142
ATAGCATG | 0.0695
AATCGTCT | 0.0396
ACAGGGCG | -0.192
GGACACAC | -0.218
GCCACGAA | -0.156
GTGAGCTA | 0.034
CTAGGCCC | -0.3
GGAATTCA | 0.0629
GCATCCAC | -0.101
CCTCCAGA | 0.0361
ACCCTGTC | -0.233
AGGATTAC | 0.065
TGGTTGAA | -0.0695
GTAGGAGA | -0.0295
AAGAAAAG | 0.11
ATCAGTTA | 0.246
GAGCGCCA | -0.258

Study 2
Target: RNA binding protein fox-1 homolog 2, RRM domain, GST-SBP tag (RBFOX2, Homo sapiens, UniProt O43251-10, residues 100-194)
Technique: RNA Bind-n-Seq
Molecule type: RNA
Medium: in vitro
Concentration: 365 nM
Setting: natural RNA segment, single round, ends assumed
Baseline: no-protein control
Direction: higher = stronger binding
All sequences stand within: GGGAGUUCUACAGUCCGACGAUC … UGGAAUUCUCGGGUGCCAA
Residues (chain): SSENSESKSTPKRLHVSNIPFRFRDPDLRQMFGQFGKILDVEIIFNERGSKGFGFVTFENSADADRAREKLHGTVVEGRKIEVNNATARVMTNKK
Oligonucleotide | RBNS enrichment (R)
AUAUAGUGCCCUUGGAAGAAAAUUAGGCCUCAAAUGACAGUAGCAUUGAAGUGUUUGCUGCAGAGUUGAGGGAAACCCCCAGCCACCCUCCCGGAAUCCGAGAUAGGGUG | 0.414
CCUUUAAUCCCAGCACUUGGGAGGCAGAGGCAGGCGGAUUUCUGAGUUCCAGGCCAGCCUGGUCUACAGAGUGAGUCCAGGACAGCCAGGGCUAUACAGAGAACCCUGUC | 0.199
UUUGAUAAGCCUUCUGCUCACAUUUUUGUGAAUGUCUGAAGUAUAUAGUUUGUGUAUAUUGACAGAGCUCUUUUAUAACUAAAGCAAAUUUAAUUUUUUUGUACUAGAAA | 1.07
CCCUGAAACUGAGUCUGUGGACACUGUGGAAAGCUUUGAACAAUUGUGUUUUCGUCACAGGAGUCUUUGUAAUGCUUGUACAGUUGAUGUCGAUGCUCACUGCUUCUGCU | 0.442
UGCACAGCUUGGUUAGACCUAGAUUUAACCCUAAGGUAAGAUGCUGGGGUAUAGAACGCUAAGAAUUUUCCCCCAAGGACUCUUGCUUCCUUAAGCCCUUCUGGCUUCGU | 0.243
AGGCCAUCUUCUGUGUCGGUGCUGUGAUCUGCCUUGUUCUCACUUGCUGAGGAUAAGGGCAUACACGCUGCUCCUCGCUUUCUUGUUGCCCGACUUCGUACUAAGCAGCU | 0.271
UGUGUGGCCAGGCUGCAGAGCUGCGUGCCGUUUGUGUCCGAGCAUCACGUGUGGCUCCAGCCCUUGUUUCUGCCAGUGUAGACACCUCUGUCUGCCCCACUGUCCUGGGG | 0.321
GUAGCGUUCCCACUGGAGCUGUGUGCGCGGUGUGCAAAGGCGAAAAGAUAUGUCAUAGUUGCCAUAAAAGAGGCUGAUUGUGAAAUUCUGGUGGACUAGGCAAGGUACAG | 1.16
GUGUUGGGACAGCAGGAUAGGGUUCUAAAGGUGGUUUUCUAUCCAAACGACCAAAAAACCAACAGUAACACCAGUGAAACCCCACACUGUCGGGCUUAUAAAAAUCUGUG | 0.445
UGCUACUGCUCAUGAUUCAAAUGUCUACCACAAUCUGAAUUGGGAUGUUGACAUUUUGUGGUUAUUUUCAGAUUAAUAGUAAUUGUUAUGCUCUUAAAAGCACUCAUAGA | 0.855
UUAAACGUGCAUUUUUACUCAACUACCUCAGGUAUUCAGUAAUACAAUGAAAAGCAAAAUUGUUCCUUUUUUUUGAAAAUUUUAUAUACUUUAUAAUGAUAGAAGUCCAA | 0.666
GCCUGGCCCACUUCUCUUUCUCUCCUCCAAAUGAGGAGUUAAAAAUGUUACUAGCAUAGCCCACCCGUGUAAUCCGUUGAAAAGGAACAAAAGGAAAAAAGAAAAGAAAG | 0.45

Study 3
Target: Centromere-binding protein 1, full length, N-terminal tag (CBF1, Saccharomyces cerevisiae, UniProt P17106, residues 1-351)
Sequence of UniProt P17106 (whole entry, looked up): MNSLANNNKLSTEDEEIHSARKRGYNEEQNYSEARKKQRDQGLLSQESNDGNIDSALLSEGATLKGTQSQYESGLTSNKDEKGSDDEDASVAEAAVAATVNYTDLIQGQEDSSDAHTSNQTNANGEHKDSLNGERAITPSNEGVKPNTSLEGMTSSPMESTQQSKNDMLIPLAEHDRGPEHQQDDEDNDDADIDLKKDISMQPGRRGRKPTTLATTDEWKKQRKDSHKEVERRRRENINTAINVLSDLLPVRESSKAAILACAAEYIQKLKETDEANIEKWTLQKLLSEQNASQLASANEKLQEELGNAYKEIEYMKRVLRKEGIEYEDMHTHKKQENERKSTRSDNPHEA
Technique: protein-binding microarray
Molecule type: double-stranded DNA, one strand shown
Medium: in vitro
Concentration: 0.8 µM
Setting: whole 60-bp probe, no competitor
Direction: higher = stronger binding
All sequences stand within: … GTCTTGATTCGCTTGACGCTGCTG
Oligonucleotide | fluorescence intensity [a.u.]
GAATACCTGTTAAATATCGTGAAATTGTGCTGCTAG | 530
TGTACGAAGCTATTGCATGTGATTATAGTAGTTAGG | 1600
CTAACCTTTGTGATTCACGCTGTCCTCGTGAAATTC | 645
CTAGTACTTGTACATCAGACAAGGATGAATTAATTC | 491
GAATCGGCATGTCATCACCAGCGAGTTCGCCGGTAG | 486
GAACTCCCACCATTGAACGTGATTATGACTTCCTAG | 880
GAAAAAAGTTCAAAACATGTGGAACGGGTAACATAG | 576
GAAACACGGGCGGCATTCGTGATGACAATAGATTAG | 541
TGTACGAAGCTATTAATCGTGCTTATAGTAGTTAGG | 518
CTAATGTCAAAAAATCTCGTGAGGCCTCCGGAATTC | 537
CTAAAGATCACCACGCACGTTTAGGGGATCGGATTC | 567
CTAATATATGAGGAATACGGGTCACCACACTAATTC | 673
CTATACCATGTGCGCCACGAGGCCTCAAACGTATTC | 826
CTATGAATAGAACGTGACTCAACAGAAAGTCACTTC | 3860
CTAACTGAGACCATCCACGTTGTGGGCACCACCTTC | 501
CTATCCATACTCCGTGGCGTGCATGTGTTTTAGTTC | 773
GAAAAATCATTATGGTGCATGATGCATCACTTATAG | 516
GAATGTTGTAAAGATCATCAGAAAAAGAGTTAATAG | 516
CCTAACTACTATATGCACGGGGAATAGCTTCGTACA | 584
CTACTCGCAGACCATGTGACCGCCGGTACTCCTTTC | 7080
CCTAACTACTATACCAACGTGACATAGCTTCGTACA | 1620

Study 4
Target: CCNA1, cyclin fold, Cln2 fusion (human)
Technique: yeast growth competition, sequencing
Medium: yeast
Setting: weak parent motif
Baseline: not given
Direction: higher = stronger binding
Starting sequence: PKN2 docking peptide (human); VSAVQKLDFSDTM; partner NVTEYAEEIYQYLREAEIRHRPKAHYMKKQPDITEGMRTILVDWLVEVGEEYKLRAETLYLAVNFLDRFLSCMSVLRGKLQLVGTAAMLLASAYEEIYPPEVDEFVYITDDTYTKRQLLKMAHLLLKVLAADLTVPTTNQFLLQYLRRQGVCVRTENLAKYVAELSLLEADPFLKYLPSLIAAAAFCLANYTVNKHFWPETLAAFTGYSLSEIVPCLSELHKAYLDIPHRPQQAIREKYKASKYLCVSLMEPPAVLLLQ
Variant | normalised enrichment score
VSAVQKLEFSDTM [D8E] | 0.176
VSAVQKLDFSDAM [T12A] | 0.0431
VSAVQKLDFKDTM [S10K] | 0.186
VSAVQKLDFCDTM [S10C] | 0.351
ISAVQKLDFSDTM [V1I] | 0.145
VSAVQKLDLSDTM [F9L] | 0.195
VCAVQKLDFSDTM [S2C] | -0.00327
VSAVQKLDFSDTI [M13I] | 0.407
VSGVQKLDFSDTM [A3G] | 0.105
VSAVQKLDFSDIM [T12I] | 0.0545
VSAVQSLDFSDTM [K6S] | 0.388
VSAAQKLDFSDTM [V4A] | 0.261
VSAVQKLFFSDTM [D8F] | 0.106
VSAVQKLDFSDVM [T12V] | 0.156
SSAVQKLDFSDTM [V1S] | 0.0818
VSLVQKLDFSDTM [A3L] | 0.0515
VSSVQKLDFSDTM [A3S] | 0.221
VSAVQKEDFSDTM [L7E] | 0.281
VSAFQKLDFSDTM [V4F] | 0.178
VSAVQKWDFSDTM [L7W] | 0.295
VSAVQKLDFSDTW [M13W] | 0.187
VSAVQYLDFSDTM [K6Y] | 0.119
VSAVQKRDFSDTM [L7R] | 0.105

Study 5
Target: ABI1, truncated, D143A, DHFR fusion (Arabidopsis thaliana, UniProt P49597)
Technique: DHFR PCA, dose-response
Medium: yeast
Setting: Hill fit, mean, not affinity
With: (+)-ABA, dose series
Direction: lower = more sensitive
Starting sequence: PYL1, truncated, DHFR fusion (Arabidopsis thaliana, UniProt Q8VZS8); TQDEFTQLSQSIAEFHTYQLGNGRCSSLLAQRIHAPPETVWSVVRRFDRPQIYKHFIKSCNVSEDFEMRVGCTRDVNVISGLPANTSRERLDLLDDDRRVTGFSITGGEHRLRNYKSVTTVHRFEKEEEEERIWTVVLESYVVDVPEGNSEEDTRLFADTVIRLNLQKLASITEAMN
Variant | ABA EC50
V76R | 917 µM
C25F | 59.8 µM
R99K | 2.24 µM
R132M | 1.95 µM
H34L | 3.25 µM
L20A | 1.8 µM
E64M | 3.97 µM
N114K | 49.7 µM
L94Q | 94.8 µM
R123H | 1.93 µM
N77S | 1.7 µM
F103H | 219 µM
G107Y | 147 µM
V161C | 126 µM
D75C | 1.08 µM

Single results of other studies
Substance | target | assay | test system | conditions | scale | measurement | result
PhoQ, residues 284 288 289 292 302 303 SSCCRF | PhoP, residues 12 14 15 18 19 LQHIR (Escherichia coli, UniProt P23836) | Sort-seq, item: YFP reporter | E. coli | PhoQ-PhoP variant library, with: 10 µM Mg2+ | baseline: high Mg2+ state, higher = stronger signaling | fold induction | 12.3

A few entries again (study 3):
Oligonucleotide | fluorescence intensity [a.u.]
CTACTCGCAGACCATGTGACCGCCGGTACTCCTTTC | 7080
CTAATGTCAAAAAATCTCGTGAGGCCTCCGGAATTC | 537
CCTAACTACTATATGCACGGGGAATAGCTTCGTACA | 584
CTAACCTTTGTGATTCACGCTGTCCTCGTGAAATTC | 645
GAAACACGGGCGGCATTCGTGATGACAATAGATTAG | 541
TGTACGAAGCTATTGCATGTGATTATAGTAGTTAGG | 1600
CTATGAATAGAACGTGACTCAACAGAAAGTCACTTC | 3860
GAAAAATCATTATGGTGCATGATGCATCACTTATAG | 516
CTAATATATGAGGAATACGGGTCACCACACTAATTC | 673
TGTACGAAGCTATTAATCGTGCTTATAGTAGTTAGG | 518
CTAAAGATCACCACGCACGTTTAGGGGATCGGATTC | 567
GAACTCCCACCATTGAACGTGATTATGACTTCCTAG | 880
